Measured values collected from several papers.
Lines come from different studies, so protocols differ. Several values in a cell are separate wells, animals, samples, runs or records. Numbers after ± are the reported error.
folP: Dihydropteroate synthase (folP, Bacteria, UniProt P0AC13)
UniProt P0AC13, sequence (whole entry, looked up): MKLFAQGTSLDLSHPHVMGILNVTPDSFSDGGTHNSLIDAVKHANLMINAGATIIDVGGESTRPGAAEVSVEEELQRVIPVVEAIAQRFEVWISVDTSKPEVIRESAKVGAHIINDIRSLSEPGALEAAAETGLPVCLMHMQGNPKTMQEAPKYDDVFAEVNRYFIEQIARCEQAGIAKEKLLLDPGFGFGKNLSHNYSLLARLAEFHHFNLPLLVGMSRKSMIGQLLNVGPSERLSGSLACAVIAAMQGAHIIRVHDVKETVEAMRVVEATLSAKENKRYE
VSIR: V-type immunoglobulin domain-containing suppressor of T-cell activation (VSIR, Homo sapiens, UniProt Q9H7M9)
UniProt Q9SZU7, sequence (whole entry, unmodified, looked up): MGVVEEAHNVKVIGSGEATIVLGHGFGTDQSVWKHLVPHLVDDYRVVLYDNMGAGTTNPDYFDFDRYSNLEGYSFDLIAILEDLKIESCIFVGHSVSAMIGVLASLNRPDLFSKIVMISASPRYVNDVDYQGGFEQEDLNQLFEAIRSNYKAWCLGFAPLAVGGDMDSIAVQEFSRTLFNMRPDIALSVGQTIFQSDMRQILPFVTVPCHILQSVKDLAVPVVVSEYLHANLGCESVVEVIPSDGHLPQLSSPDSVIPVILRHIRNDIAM
UniProt P28566, sequence (whole entry, looked up): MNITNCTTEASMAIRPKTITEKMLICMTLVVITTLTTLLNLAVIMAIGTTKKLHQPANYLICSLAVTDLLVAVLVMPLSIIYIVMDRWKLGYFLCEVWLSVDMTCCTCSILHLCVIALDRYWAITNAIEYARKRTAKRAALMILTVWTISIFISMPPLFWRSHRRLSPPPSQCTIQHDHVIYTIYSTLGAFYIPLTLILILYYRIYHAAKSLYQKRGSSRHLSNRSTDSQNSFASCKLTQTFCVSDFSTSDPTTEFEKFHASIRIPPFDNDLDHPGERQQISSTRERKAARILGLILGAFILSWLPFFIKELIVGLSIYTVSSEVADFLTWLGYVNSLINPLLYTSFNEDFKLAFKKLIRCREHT
UniProt P02716, sequence (whole entry, looked up): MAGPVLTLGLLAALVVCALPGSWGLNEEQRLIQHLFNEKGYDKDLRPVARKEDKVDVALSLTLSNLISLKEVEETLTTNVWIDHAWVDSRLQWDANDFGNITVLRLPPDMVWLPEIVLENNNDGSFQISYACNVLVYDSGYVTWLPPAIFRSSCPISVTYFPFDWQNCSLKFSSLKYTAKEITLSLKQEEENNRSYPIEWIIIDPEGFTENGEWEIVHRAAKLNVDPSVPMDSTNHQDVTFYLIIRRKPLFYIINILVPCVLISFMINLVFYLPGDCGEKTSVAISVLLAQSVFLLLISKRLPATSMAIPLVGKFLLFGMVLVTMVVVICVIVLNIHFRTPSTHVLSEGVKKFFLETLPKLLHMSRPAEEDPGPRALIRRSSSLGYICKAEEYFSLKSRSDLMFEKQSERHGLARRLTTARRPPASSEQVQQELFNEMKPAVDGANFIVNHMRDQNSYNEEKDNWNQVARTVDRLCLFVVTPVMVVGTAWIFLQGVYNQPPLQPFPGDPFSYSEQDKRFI
UniProt P18031, sequence (whole entry, looked up): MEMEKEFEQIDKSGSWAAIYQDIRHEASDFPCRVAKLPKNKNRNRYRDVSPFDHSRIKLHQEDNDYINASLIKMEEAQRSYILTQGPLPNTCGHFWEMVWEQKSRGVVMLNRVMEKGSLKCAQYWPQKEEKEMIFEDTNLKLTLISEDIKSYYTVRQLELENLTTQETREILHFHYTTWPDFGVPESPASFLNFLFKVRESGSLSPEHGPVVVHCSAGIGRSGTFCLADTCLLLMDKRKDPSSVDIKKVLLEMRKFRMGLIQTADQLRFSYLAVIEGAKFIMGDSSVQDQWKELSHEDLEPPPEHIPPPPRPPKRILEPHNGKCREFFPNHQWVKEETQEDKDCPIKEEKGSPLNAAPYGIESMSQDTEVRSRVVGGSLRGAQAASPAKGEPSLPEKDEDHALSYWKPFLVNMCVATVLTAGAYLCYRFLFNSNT
UniProt Q13526, sequence (whole entry, looked up): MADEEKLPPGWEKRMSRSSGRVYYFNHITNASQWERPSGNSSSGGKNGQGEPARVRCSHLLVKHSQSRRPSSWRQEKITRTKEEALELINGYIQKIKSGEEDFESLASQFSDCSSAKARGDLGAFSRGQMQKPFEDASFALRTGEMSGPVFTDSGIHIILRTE
UniProt P20782, sequence (whole entry, looked up): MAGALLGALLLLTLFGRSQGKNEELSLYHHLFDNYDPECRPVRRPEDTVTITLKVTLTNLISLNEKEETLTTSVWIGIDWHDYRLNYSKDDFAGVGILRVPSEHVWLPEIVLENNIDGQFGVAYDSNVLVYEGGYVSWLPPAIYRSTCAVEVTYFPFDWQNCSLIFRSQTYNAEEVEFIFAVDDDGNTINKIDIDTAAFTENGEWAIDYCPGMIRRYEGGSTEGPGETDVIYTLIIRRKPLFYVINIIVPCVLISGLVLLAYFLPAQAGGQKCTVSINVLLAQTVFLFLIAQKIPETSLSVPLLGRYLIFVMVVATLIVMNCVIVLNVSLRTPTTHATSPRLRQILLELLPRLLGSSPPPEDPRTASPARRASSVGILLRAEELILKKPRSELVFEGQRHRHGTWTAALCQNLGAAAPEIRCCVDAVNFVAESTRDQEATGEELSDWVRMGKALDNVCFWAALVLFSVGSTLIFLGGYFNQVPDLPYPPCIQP
UniProt P39748, sequence (whole entry, unmodified, looked up): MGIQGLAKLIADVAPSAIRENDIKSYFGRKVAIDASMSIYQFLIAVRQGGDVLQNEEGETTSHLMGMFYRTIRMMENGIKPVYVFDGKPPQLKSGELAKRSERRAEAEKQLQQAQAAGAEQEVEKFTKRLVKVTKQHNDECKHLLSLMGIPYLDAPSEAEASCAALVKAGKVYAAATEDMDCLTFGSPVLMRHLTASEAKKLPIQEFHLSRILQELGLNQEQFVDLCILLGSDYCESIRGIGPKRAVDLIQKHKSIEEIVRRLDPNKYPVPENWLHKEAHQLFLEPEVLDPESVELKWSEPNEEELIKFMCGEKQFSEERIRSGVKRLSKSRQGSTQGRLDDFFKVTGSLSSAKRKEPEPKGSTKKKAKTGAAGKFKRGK
UniProt P69687, sequence (whole entry, looked up): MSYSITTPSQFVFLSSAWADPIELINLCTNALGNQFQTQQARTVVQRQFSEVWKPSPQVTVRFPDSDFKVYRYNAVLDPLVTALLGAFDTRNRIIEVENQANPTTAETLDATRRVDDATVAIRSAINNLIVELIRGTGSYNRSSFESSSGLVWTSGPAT
UniProt P08191, sequence (whole entry, looked up): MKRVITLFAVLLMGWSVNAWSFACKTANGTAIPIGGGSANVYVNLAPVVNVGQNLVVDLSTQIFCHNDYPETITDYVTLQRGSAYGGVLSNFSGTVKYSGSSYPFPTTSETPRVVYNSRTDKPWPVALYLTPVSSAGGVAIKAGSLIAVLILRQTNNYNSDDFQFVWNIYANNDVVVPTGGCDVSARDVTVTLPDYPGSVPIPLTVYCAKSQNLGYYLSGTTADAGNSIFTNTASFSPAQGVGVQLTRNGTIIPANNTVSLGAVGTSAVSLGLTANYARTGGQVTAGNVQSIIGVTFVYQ
UniProt P22413, sequence (whole entry, looked up): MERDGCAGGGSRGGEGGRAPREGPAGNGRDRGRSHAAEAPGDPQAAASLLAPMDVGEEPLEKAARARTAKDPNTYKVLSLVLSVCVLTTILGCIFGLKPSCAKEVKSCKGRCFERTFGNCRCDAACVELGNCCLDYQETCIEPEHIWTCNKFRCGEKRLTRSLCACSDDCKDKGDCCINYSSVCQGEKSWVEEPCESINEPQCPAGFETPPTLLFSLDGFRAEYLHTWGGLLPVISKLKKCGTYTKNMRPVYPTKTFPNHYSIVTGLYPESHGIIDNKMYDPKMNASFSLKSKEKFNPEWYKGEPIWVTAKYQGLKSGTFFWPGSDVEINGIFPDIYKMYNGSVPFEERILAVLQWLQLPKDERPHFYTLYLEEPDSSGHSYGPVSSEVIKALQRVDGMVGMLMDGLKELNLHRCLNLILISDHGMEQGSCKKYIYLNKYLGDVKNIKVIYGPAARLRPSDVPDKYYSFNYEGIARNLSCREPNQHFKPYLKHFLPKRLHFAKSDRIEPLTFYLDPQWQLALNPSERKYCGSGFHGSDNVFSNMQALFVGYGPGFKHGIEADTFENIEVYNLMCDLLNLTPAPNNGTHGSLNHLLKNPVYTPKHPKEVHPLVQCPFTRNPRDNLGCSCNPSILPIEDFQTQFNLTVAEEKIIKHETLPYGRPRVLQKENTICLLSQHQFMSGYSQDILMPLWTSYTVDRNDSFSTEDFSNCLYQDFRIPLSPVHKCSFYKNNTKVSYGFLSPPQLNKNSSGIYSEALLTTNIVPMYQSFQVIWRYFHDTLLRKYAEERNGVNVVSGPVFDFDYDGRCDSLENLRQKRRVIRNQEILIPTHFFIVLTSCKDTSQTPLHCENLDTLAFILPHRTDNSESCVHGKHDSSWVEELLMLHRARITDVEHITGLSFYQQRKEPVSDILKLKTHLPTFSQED
UniProt P04756, sequence (whole entry, looked up): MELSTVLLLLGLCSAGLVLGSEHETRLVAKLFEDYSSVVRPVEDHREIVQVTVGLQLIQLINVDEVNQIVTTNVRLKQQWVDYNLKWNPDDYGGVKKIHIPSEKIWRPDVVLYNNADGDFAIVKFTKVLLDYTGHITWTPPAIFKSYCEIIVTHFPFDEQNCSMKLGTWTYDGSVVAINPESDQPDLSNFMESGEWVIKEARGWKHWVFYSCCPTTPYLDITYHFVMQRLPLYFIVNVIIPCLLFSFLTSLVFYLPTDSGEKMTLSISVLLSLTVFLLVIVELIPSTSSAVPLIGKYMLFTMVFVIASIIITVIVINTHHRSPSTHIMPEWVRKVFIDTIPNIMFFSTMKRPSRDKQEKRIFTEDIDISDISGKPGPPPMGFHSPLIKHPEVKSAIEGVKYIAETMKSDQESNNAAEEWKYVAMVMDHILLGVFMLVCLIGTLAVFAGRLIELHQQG

Compound | target | test | test system | conditions | Kd
CCc1nc2cc3ccccc3cc2cc1C(=O)N1CCC[C@H]1C(=O)N[C@@H](C/C=C\C[C@H](NC(=O)[C@@H]1CCCN1C(=O)c1cc2cc3ccccc3cc2nc1CC)C(=O)N[C@@H](CCCCN)C(=O)NCCCN)C(=O)N[C@@H](CCCCN)C(=O)NCCCN | (CAG)10 RNA | SPR | – | – | 0.052 µM
CCCCSC(SCCCC)c1ccc(OCCNS(=O)(=O)c2ccc(F)cc2)c(OC)c1 | CP (Tobacco mosaic virus, UniProt P69687) | binding, MST | – | – | 9.7 µM
CCCCCCCO[C@H]1CO[C@H](CO)[C@@H](O)[C@H](O)[C@@H]1O | Type 1 fimbrin D-mannose specific adhesin, lectin domain (fimH, Escherichia coli K-12, UniProt P08191) | binding, isothermal titration calorimetry | – | 15 °C, global fit, two runs | 0.168 µM
COC(=O)CC(C)c1nn(C)c2nc(N)[nH]c(=O)c2c1=O (stereo not drawn) | folP | binding, SPR | – | – | 0.188 µM
CC1(C)C[C@@H](Nc2cccc(-c3sc(C(=O)O)c(OCC(=O)O)c3Cl)c2)CCN1S(=O)(=O)Cc1cccc(NC(=O)CN2CCC(c3ccc4c(c3)oc(=O)n4C3CCC(=O)NC3=O)CC2)c1 (stereo partly drawn) | PTPN1 (Homo sapiens, UniProt P18031) | binding, BLI | – | – | 0.085 µM
C[N+]1(C)CCCC1 | Chrnd/Chrna1/Chrne (Mus musculus, UniProt P02716+P04756+P20782) | single-channel kinetics | – | wild-type receptor | 2100 µM
O=c1cc(-c2ccccc2)oc2c(OCCCCN3CCCC3)c(OCc3ccccc3)cc(O)c12 | TXNRD1 (Homo sapiens, UniProt Q16881, R371A) | binding, microscale thermophoresis | – | – | 218 µM
CN(C)c1ccc2c(-c3ccc(C(=O)NCCOCCOCCOCCn4cc(COc5cc(C(=O)c6cc(Cl)ccc6NS(=O)(=O)c6ccc(C(C)(C)C)cc6)ccn5)nn4)cc3C(=O)[O-])c3ccc(=[N+](C)C)cc-3oc2c1 | CCR9 (Homo sapiens, UniProt P51686) | binder, NanoBRET | HEK293T | – | 0.195 ± 0.0146 µM
Cn1nc(CCCC(=O)O)c(=O)c2c(=O)[nH]c(N)nc21 | folP | binding, SPR | – | – | 0.0405 µM
CCc1nc2cc3ccccc3cc2cc1C(=O)N1CCC[C@H]1C(=O)N[C@@H](CCC/C=C/CCC[C@H](NC(=O)[C@@H]1CCCN1C(=O)c1cc2cc3ccccc3cc2nc1CC)C(=O)N[C@@H](CCCCN)C(=O)NCCCN)C(=O)N[C@@H](CCCCN)C(=O)NCCCN | (CAG)10 RNA | SPR | – | – | 0.878 µM
Cn1cncc1C1=CN(c2ncnc3[nH]cnc23)CC[S+]1[O-] (stereo not drawn) | PRKACA (Homo sapiens, UniProt P17612) | binding | – | – | > 200 µM
Cc1c2ccnc(C(=O)N[C@H](C)CN(C)C)c2cc2c3cc(OCCCN4CCN(C)CC4)ccc3n(C)c12 | r(CGG)16 RNA | binding, microscale thermophoresis | – | – | 1.01 ± 0.192 µM
CC(=O)N[C@H](C(=O)N1CCC[C@H]1C(=O)N[C@@H](CCCNC(=N)N)C(=O)N[C@H](C(=O)N1CCC[C@H]1C(=O)N[C@H](C(N)=O)C(C)C)[C@@H](C)OP(=O)(O)O)C(C)C | Peptidyl-prolyl cis-trans isomerase NIMA-interacting 1, WW domain (PIN1, Homo sapiens, UniProt Q13526) | binding, competitive ELISA | – | pH 7.3 | 110 ± 30 µM
O=C(O)CCC(=O)c1cccc(NS(=O)(=O)c2c[nH]c3ncccc23)c1 | Ubiquitin carboxyl-terminal hydrolase 33, ZnF-UBD domain (USP33, Homo sapiens, UniProt Q8TEY7) | – | – | – | > 1000 µM
CNc1cc(C)c(C(N)=O)cn1 | Nicotinamide N-methyltransferase, SAM-bound (Rattus norvegicus, UniProt A0ABK0M0V0) | substrate, SPR | – | 37 °C, added: SAM | 3.98 µM
CCc1nc2cc3ccccc3cc2cc1C(=O)N[C@@H](CCCCN)C(=O)N[C@@H](C/C=C\C[C@H](NC(=O)[C@H](CCCCN)NC(=O)c1cc2cc3ccccc3cc2nc1CC)C(=O)N1CCC[C@H]1C(=O)NCCCN)C(=O)N1CCC[C@H]1C(=O)NCCCN | (CAG)10 RNA | SPR | – | – | 0.445 µM
CC(CCc1ccccc1)NC(=O)C(=O)NCc1n[nH]c(=O)c2ccccc12 (stereo not drawn) | VSIR | binding, MST | – | – | 2.13 µM

Compound | target | test | test system | conditions | Kd
Cc1c[nH]c2nccc(-c3ccc(C(=O)N[C@@H]4c5c(F)cc(C(F)F)cc5C[C@@H]4O)cn3)c12 | GRK1 (Homo sapiens, UniProt Q15835) | binding, competition with immobilised ligand | – | – | 0.65 µM
Cc1sc2c(c1C)C(c1ccc(Cl)cc1)=N[C@@H](CC(=O)NCCCCCCCNC(=O)c1ccc3c(c1)C(=O)OC31c3ccc(O)cc3Oc3cc(O)ccc31)c1nnc(C)n1-2 | uncharacterized protein (Spodoptera frugiperda, UniProt A0A9R0EEM2) | surface plasmon resonance | – | binary complex | 0.12 µM
Cc1cccc2c1N(C(=O)n1ccnn1)CC2 | KAI2 (Arabidopsis thaliana, UniProt Q9SZU7, F134A) | binding, isothermal titration calorimetry | – | F134A mutant | 13.9 µM and 8.33 µM and 11.2 µM and 10.2 µM
CCCCCCCC[C@@H]1NC(=O)[C@@H](CCCN)NC(=O)[C@@H](NC(=O)[C@@H](NC(=O)[C@@H](CCC(=O)O)NC(=O)[C@H](CC(C)C)NC(=O)[C@@H]2CSC([C@@H](N)[C@@H](C)CC)=N2)[C@@H](C)CC)CCCCNC(=O)[C@H](CC(N)=O)NC(=O)[C@@H](CC(=O)O)NC(=O)[C@H](Cc2c[nH]cn2)NC(=O)[C@@H](Cc2ccccc2)NC1=O | undecaprenyl pyrophosphate | binding, isothermal titration calorimetry | phosphatidylcholine lipid vesicles | pH 7.5, 25 °C, 0.3 mM zinc sulfate | 0.021 ± 0.0114 µM
C=CC(=O)N1C[C@H](C)N(c2nc(OC[C@@]34CCCN3C[C@H](F)C4)nc3c(F)c(-c4ccc(F)c5sc(N)c(C#N)c45)c(C(F)(F)F)cc23)C[C@H]1C | GTPase KRas, GDP-bound (KRAS, Homo sapiens, UniProt P01116, Q61H) | SPR | – | – | 0.00139 ± 0.00021 µM
COc1ccc(C(=O)NCCNC(=O)c2cc(-c3ccccc3)nc3ccccc23)cc1OC | VSIR | binding, MST | – | – | 0.47 µM
Cc1ccc(C(=O)Nc2ccc(S(=O)(=O)O)c3cc(S(=O)(=O)O)cc(S(=O)(=O)O)c23)cc1NC(=O)c1cccc(NC(=O)Nc2cccc(C(=O)Nc3cc(C(=O)Nc4ccc(S(=O)(=O)O)c5cc(S(=O)(=O)O)cc(S(=O)(=O)O)c45)ccc3C)c2)c1 | SLC25A13 (Homo sapiens, UniProt Q9UJS0) | isothermal titration calorimetry | vesicles | – | 7.25 µM
Cn1nc(CCC#N)c(=O)c2c(=O)[nH]c(N)nc21 | folP | binding, SPR | – | – | 0.0334 µM
CCNCc1cc(/C=N/Nc2ccc(C(=O)O)cc2)ccc1OS(=O)(=O)c1ccc(C)cc1 | HTR1E (Homo sapiens, UniProt P28566) | dynamic mass redistribution | HEK293 expressing HTR1E | – | 0.0021 ± 0.0002 µM
COc1cccc2c(N3CCC(CCP(=O)(O)O)CC3)ncnc12 | ENPP1 (Homo sapiens, UniProt P22413) | binding, SPR | – | – | 0.000397 µM
O=c1[nH]c2ccccc2c(=O)n1O | Flap endonuclease 1 (Homo sapiens, UniProt P39748) | ITC | – | pH 7.5, 25 °C, added: 8 mM Mg2+ | 1.58 µM
Cn1ncc2cc(-c3cncc(Cl)c3N3CCC4(CCNC4=O)CC3)ccc21 | Protein FAM89A (FAM89A, Homo sapiens, UniProt Q96GI7) | SILAC displacement | LS174T-L5 cell lysate | – | 9.2 µM
CN(Cc1nn(C)c2nc(N)[nH]c(=O)c2c1=O)c1nnn[nH]1 | folP | binding, SPR | – | – | 0.00153 µM
O=C(NS(=O)(=O)c1cccs1)c1cc2ccccc2n1Cc1ccc(Br)c2ccccc12 | SLC22A11 (Homo sapiens, UniProt Q9NSA0) | binding, SPR | – | – | 0.71 µM
NCCCC[C@H](NC(=O)[C@H](C/C=C\C[C@H](NC(=O)[C@@H]1CCCN1)C(=O)N[C@@H](CCCCN)C(=O)NCCCN)NC(=O)[C@@H]1CCCN1)C(=O)NCCCN | (CAG)10 RNA | SPR | – | – | 0.176 µM
Cc1n[nH]c2nc(N)[nH]c(=O)c2c1=O | folP | binding, SPR | – | – | 0.142 µM

Repeated from above:
Compound | target | test | test system | conditions | Kd
Cn1nc(CCC#N)c(=O)c2c(=O)[nH]c(N)nc21 | folP | binding, SPR | – | – | 0.0334 µM
CCNCc1cc(/C=N/Nc2ccc(C(=O)O)cc2)ccc1OS(=O)(=O)c1ccc(C)cc1 | HTR1E (Homo sapiens, UniProt P28566) | dynamic mass redistribution | HEK293 expressing HTR1E | – | 0.0021 ± 0.0002 µM
COc1cccc2c(N3CCC(CCP(=O)(O)O)CC3)ncnc12 | ENPP1 (Homo sapiens, UniProt P22413) | binding, SPR | – | – | 0.000397 µM
O=c1[nH]c2ccccc2c(=O)n1O | Flap endonuclease 1 (Homo sapiens, UniProt P39748) | ITC | – | pH 7.5, 25 °C, added: 8 mM Mg2+ | 1.58 µM
Cn1ncc2cc(-c3cncc(Cl)c3N3CCC4(CCNC4=O)CC3)ccc21 | Protein FAM89A (FAM89A, Homo sapiens, UniProt Q96GI7) | SILAC displacement | LS174T-L5 cell lysate | – | 9.2 µM
